{"data": "Measured values from different studies", "note": "Numbered parts are unrelated; each lists some results of a single study. “And” joins repeats or separate records; there may be more than shown. ± marks the error that the study gave.", "sequence of UniProt P42681 (whole entry, looked up)": "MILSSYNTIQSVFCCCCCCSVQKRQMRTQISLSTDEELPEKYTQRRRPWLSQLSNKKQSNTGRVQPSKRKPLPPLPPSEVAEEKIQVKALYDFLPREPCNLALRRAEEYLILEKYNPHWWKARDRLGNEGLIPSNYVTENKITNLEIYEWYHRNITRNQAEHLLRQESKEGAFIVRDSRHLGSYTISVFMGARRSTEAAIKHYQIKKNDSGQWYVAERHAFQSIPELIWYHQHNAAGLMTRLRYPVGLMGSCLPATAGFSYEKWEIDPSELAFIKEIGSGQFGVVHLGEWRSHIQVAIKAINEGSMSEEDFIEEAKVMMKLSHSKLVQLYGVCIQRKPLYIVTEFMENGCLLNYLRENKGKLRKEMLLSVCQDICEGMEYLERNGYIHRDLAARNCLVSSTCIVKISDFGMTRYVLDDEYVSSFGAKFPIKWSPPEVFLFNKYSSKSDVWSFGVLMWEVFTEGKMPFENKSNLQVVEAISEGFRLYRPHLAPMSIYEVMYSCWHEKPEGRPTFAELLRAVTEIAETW", "sequence of UniProt Q15759 (whole entry, looked up)": "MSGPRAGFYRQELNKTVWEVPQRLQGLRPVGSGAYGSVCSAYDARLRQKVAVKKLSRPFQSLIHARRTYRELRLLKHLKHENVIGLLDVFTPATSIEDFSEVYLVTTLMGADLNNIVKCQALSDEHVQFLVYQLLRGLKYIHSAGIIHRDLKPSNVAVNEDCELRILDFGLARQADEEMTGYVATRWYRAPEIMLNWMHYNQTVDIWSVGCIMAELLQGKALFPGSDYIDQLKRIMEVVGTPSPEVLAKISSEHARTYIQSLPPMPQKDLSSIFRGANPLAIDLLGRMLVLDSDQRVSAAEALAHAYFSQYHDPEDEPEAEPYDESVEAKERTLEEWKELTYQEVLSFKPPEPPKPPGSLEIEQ", "sequence of UniProt Q16832 (whole entry, looked up)": "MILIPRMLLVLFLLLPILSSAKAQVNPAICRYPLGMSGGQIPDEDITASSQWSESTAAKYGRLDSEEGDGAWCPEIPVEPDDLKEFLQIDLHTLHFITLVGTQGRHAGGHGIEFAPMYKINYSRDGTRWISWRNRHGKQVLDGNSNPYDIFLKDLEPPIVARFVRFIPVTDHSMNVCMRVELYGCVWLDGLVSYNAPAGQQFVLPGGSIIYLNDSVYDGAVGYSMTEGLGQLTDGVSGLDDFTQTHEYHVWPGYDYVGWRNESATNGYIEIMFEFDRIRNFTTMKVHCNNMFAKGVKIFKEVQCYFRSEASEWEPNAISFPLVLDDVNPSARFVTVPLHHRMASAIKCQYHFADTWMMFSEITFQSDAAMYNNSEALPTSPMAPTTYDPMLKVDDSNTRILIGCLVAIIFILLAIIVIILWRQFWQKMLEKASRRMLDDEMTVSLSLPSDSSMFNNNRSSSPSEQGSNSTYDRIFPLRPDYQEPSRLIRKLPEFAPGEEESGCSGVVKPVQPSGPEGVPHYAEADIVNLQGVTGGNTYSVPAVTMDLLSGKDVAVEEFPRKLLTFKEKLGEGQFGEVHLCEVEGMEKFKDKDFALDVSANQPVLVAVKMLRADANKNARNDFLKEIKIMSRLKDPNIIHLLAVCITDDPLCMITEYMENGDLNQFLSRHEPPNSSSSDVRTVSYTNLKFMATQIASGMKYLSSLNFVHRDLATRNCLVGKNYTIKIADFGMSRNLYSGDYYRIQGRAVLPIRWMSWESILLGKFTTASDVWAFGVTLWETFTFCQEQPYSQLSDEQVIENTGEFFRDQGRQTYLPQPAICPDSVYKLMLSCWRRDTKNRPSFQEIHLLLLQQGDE", "sequence of UniProt Q00532 (whole entry, looked up)": "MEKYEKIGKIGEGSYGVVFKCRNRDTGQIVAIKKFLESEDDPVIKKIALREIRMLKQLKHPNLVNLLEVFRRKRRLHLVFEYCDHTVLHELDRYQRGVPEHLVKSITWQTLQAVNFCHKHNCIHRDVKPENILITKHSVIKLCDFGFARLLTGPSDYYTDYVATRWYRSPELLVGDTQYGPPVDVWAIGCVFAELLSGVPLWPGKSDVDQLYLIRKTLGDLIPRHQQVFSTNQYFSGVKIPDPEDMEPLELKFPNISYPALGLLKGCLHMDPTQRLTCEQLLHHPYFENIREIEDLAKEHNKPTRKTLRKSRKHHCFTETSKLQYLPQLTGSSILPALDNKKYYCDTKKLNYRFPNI", "sequence of UniProt P28482 (whole entry, looked up)": "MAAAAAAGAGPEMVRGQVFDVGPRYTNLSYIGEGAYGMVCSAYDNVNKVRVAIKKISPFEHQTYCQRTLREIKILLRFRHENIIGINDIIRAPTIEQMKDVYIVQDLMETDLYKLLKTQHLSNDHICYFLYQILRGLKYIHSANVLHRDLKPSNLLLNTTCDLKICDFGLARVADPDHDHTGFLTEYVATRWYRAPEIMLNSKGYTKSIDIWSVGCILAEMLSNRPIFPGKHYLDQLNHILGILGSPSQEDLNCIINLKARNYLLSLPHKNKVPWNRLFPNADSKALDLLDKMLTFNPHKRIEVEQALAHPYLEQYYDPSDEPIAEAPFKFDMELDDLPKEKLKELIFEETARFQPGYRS", "sequence of UniProt Q02750 (whole entry, looked up)": "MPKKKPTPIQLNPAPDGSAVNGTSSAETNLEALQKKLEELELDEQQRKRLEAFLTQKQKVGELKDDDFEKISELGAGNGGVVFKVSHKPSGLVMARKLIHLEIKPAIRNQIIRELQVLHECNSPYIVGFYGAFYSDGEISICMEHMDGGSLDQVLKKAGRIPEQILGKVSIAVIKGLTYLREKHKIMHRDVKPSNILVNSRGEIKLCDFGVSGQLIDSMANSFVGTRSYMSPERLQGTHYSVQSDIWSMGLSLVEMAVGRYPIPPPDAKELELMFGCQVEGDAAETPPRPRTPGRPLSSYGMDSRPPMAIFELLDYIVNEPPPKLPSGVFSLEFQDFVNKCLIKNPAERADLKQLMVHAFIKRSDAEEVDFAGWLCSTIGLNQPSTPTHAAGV", "sequence of UniProt Q8N4C8 (whole entry, looked up)": "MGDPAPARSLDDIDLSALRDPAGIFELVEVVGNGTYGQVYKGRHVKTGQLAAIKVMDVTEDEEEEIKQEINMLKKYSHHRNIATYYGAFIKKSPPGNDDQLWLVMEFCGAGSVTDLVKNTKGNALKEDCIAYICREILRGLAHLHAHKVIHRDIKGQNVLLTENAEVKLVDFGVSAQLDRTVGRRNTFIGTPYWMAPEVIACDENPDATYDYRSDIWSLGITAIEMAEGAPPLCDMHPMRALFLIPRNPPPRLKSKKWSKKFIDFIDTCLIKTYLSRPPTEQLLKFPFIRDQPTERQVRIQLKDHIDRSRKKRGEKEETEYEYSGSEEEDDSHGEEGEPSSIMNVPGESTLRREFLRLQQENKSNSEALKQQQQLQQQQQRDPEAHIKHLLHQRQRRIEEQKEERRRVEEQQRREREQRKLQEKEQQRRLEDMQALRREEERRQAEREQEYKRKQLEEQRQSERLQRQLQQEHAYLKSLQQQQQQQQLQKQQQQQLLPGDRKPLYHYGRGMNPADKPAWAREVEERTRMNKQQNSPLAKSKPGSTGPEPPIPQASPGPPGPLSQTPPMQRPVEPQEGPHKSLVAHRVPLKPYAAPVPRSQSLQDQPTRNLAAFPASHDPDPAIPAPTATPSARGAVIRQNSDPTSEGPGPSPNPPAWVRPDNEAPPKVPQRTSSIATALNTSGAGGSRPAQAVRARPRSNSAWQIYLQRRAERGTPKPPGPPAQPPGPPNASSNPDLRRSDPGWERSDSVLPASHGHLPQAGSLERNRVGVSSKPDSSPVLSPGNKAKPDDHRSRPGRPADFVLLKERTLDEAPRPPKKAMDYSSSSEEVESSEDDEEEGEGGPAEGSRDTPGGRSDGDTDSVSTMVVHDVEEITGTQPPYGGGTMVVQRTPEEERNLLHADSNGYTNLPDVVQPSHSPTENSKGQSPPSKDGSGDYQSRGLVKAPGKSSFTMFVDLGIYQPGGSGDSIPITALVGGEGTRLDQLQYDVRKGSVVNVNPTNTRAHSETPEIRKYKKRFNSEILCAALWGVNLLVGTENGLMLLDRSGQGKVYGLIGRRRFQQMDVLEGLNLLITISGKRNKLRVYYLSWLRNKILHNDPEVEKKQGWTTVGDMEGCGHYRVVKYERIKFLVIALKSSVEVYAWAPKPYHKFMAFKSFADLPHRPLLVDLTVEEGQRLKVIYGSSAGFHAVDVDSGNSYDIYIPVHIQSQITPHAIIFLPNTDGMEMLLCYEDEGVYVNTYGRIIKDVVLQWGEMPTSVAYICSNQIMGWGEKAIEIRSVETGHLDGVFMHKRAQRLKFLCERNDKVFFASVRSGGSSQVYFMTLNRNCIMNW", "sequence of UniProt Q16566 (whole entry, looked up)": "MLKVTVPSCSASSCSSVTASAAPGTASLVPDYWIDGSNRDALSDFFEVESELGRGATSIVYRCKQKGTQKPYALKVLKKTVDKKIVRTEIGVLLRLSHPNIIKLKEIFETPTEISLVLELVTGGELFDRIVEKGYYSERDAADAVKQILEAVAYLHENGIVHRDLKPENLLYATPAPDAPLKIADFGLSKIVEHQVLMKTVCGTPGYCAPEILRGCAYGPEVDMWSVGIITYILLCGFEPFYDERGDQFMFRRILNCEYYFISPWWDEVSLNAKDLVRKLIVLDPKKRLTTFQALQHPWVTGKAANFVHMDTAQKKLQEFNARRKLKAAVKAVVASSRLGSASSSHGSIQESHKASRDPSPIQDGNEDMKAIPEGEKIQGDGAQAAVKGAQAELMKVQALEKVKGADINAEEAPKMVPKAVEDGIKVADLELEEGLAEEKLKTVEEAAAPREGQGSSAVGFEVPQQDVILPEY", "sequence of UniProt Q16539 (whole entry, looked up)": "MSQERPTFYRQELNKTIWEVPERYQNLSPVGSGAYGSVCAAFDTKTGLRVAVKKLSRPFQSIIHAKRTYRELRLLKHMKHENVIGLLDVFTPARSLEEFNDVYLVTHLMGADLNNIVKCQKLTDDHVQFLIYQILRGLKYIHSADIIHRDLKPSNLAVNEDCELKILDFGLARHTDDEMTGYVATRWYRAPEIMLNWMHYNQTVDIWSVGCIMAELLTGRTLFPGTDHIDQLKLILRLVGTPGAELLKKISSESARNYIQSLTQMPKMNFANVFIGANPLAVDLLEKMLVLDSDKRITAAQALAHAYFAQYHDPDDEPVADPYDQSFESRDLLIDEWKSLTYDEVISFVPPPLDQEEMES"}
{"data": "Study 1", "SMILES": "COc1cc(C(=O)N2CCC(N3CCN(C)CC3)CC2)ccc1Nc1ncc2c(n1)N(C)c1ccccc1C(=O)N2C", "effect on": "kinase activity"}
{"target": "GSK3B", "concentration": "10 µM", "remaining activity [%]": "95 ± 3"}
{"target": "MARK2", "concentration": "10 µM", "remaining activity [%]": "72 ± 9"}
{"target": "AMPK", "concentration": "10 µM", "remaining activity [%]": "46 ± 1"}
{"target": "PAK6", "concentration": "1 µM", "remaining activity [%]": "94 ± 15"}
{"target": "HIPK2", "concentration": "10 µM", "remaining activity [%]": "86 ± 2"}
{"target": "MARK4", "concentration": "1 µM", "remaining activity [%]": "94 ± 4"}
{"target": "RSK1", "concentration": "1 µM", "remaining activity [%]": "97 ± 3"}
{"data": "Study 2", "SMILES": "Cc1cc(Nc2nc(-c3ccccc3)nc3ccccc23)n[nH]1", "effect on": "enzyme activity", "mode": "inhibitor", "concentration": "0.5 µM", "reference": "control"}
{"target": "NEK3 (Homo sapiens, UniProt P51956)", "remaining activity [%]": 101}
{"target": "KDR (Homo sapiens, UniProt P35968)", "remaining activity [%]": 36.5}
{"target": "MAPK1 (Homo sapiens, UniProt P28482)", "remaining activity [%]": 89.3}
{"target": "Cyclin-dependent kinase 1, with cyclin A (CDK1, Homo sapiens, UniProt P06493)", "remaining activity [%]": 95}
{"target": "DDR2 (Homo sapiens, UniProt Q16832)", "remaining activity [%]": 93.2}
{"target": "MAP2K1 (Homo sapiens, UniProt Q02750)", "remaining activity [%]": 91.6}
{"target": "PRKG2 (Homo sapiens, UniProt Q13237)", "remaining activity [%]": 98.2}
{"target": "MAPK14 (Homo sapiens, UniProt Q16539)", "remaining activity [%]": 103}
{"target": "PNCK (Homo sapiens, UniProt Q6P2M8)", "remaining activity [%]": 102}
{"target": "CAMK4 (Homo sapiens, UniProt Q16566)", "remaining activity [%]": 94.1}
{"target": "MINK1 (Homo sapiens, UniProt Q8N4C8)", "remaining activity [%]": 35.6}
{"target": "TXK (Homo sapiens, UniProt P42681)", "remaining activity [%]": 45.3}
{"target": "MAPK11 (Homo sapiens, UniProt Q15759)", "remaining activity [%]": 96.8}
{"target": "MET (Homo sapiens, UniProt P08581)", "remaining activity [%]": 130}
{"data": "Study 3", "host": "C57BL/6 IFN-γ knockout mouse female", "matrix": "plasma", "route": "oral", "dose": "10 mg/kg", "time": "4 h"}
{"Structure (SMILES)": "CNC(=O)c1ccc(-c2cnn3ccc(C(=O)N(C[C@H]4CCC(=O)O4)c4ccc(OC(F)(F)F)cc4)cc23)cc1", "plasma concentration": "2 nM and 4.58 nM and 2.61 nM"}
{"Structure (SMILES)": "CCOC(=O)CN(C(=O)c1ccn2ncc(-c3ccc(C(=O)NC)cc3)c2c1)c1ccc(Cl)cc1", "plasma concentration": "202 nM and 133 nM"}
{"Structure (SMILES)": "COC(=O)c1cc(Cl)ccc1N(C)C(=O)c1ccn2ncc(-c3ccc(C(N)=O)cc3)c2c1", "plasma concentration": "19 nM and 14 nM and 29 nM"}
{"Structure (SMILES)": "CN(C(=O)c1ccn2ncc(-c3ccc(C(N)=O)cc3)c2c1)c1ccc(C#N)cn1", "plasma concentration": "555 nM and 515 nM"}
{"data": "Study 4", "SMILES": "CCC(=O)N[C@H]1CC[C@@H](C(=O)N(C)c2ccc(-c3nc4ccccc4o3)cc2)C1", "effect on": "cell-free assay", "method": "competition with immobilised ligand", "concentration": "1 µM"}
{"target": "PIK3CA (Homo sapiens, UniProt P42336, E545A)", "remaining binding": "90%"}
{"target": "MAP4K5 (Homo sapiens, UniProt Q9Y4K4)", "remaining binding": "100%"}
{"target": "CDKL1 (Homo sapiens, UniProt Q00532)", "remaining binding": "95%"}
{"target": "MAPK3 (Homo sapiens, UniProt P27361)", "remaining binding": "100%"}
{"target": "PIP4K2B (Homo sapiens, UniProt P78356)", "remaining binding": "54%"}
{"target": "ERBB2 (Homo sapiens, UniProt P04626)", "remaining binding": "100%"}
{"target": "SRMS (Homo sapiens, UniProt Q9H3Y6)", "remaining binding": "89%"}
